Assay results collected from several papers.
A part holds a random share of what one study measured. Changes are numbered by the printed parent chain.

Block 1 — method: RNA Bind-n-Seq; form: RNA; sample: in vitro; concentration: 200 nM; setting: whole 134-nt RNA, ends assumed; together with: 150 mM KCl; relative to: input library; reading: higher = stronger binding
Target: Fragile X messenger ribonucleoprotein 1, C-terminal low-complexity region (Fmr1, Mus musculus, UniProt P35922)
`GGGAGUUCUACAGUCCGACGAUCUGUAACCUGGGGAUUCUCUCAACUCUCUUGUCCCACACAGACUUCUAUGAGGAAAUCCAGGAGUUUGUGAAAGAUGUCUUUUCACCUAUAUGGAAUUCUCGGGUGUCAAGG` has a log2 enrichment of 0.174.
For `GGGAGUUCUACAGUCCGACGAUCACCAUACAGGUGGGCAUCUUUGGGAAGUGGGGCAAGGGGGGGAUAGGGAGGGGGGUAACACUUUGGGAACAGGUGGUCCCAGGUCGUUUCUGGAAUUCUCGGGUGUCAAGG`, the log2 enrichment was 0.958.
The log2 enrichment of `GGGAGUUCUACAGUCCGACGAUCAGUCCUGUGCUACACAUCGUAUGUACCGAAUCGGGAAAAAGGGUUUUUGGGAAAGGGAAAGUAUUAUGUUACGCCGUUCGGAUCUGCACUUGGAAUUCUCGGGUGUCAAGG` is reported as -0.0445.
The log2 enrichment of `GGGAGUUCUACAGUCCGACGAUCCAAGUCCUGUGCUACACAUCGUAUGUACCGAAUCGGUUUUUGGAAAAAAAGGAGGAAAGUAUUAUGUUACGCCGUUCGGAUCUGCACUUCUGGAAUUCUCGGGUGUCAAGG` is reported as -0.692.
For `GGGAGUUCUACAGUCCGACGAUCCCUGUGCUACACAUCGUAUGUACCGAAUCGGGAAAAAAAGGGUUUUUGGGAAAAAAAGGGAAAGUAUUAUGUUACGCCGUUCGGAUCUGCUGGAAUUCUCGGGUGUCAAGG`, the log2 enrichment was -0.788.
For `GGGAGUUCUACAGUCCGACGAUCUGUGCUACACAUCGUAUGUACCGAAUCGGGGUUUUUUUGGGGUUUUUGGGGAAAAAAAGGGGAAAGUAUUAUGUUACGCCGUUCGGAUCUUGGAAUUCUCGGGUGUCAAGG`, the log2 enrichment was 0.0481.
With `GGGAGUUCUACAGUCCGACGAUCAAGUCCUGUGCUACACAUCGUAUGUACCGAAUCGGGGAAAAAGGGGAGGGGAGGGGAAAGUAUUAUGUUACGCCGUUCGGAUCUGCACUUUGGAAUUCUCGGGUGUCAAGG` the log2 enrichment was 0.57.
For `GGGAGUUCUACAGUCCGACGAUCGUCCUGUGCUACACAUCGUAUGUACCGAAUCGGUUUUUGGUUUUUUUGGUUUUUUUGGAAAGUAUUAUGUUACGCCGUUCGGAUCUGCACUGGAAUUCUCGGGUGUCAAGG`, the log2 enrichment was -0.746.
`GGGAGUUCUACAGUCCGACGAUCUCCUGUGCUACACAUCGUAUGUACCGAAUCGGGGAGGGGAAAAAGGGGUUUUUUUGGGGAAAGUAUUAUGUUACGCCGUUCGGAUCUGCAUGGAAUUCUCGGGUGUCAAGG` has a log2 enrichment of 0.531.
`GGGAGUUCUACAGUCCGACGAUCUGGCCCUGGUGGCAUGCGGGGAGGAAGAGGUGGCCUCAUGCAUCGUGGUGGUCCCGGUGGAAUGUUCAGAGGUGGCCGUGGUGGAGACAGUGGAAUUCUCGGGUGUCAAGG` has a log2 enrichment of -0.0156.
`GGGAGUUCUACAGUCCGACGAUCUCCUCAAGUCCUGUGCUACACAUCGUAUGUACCGAAUCGGGUGGGUGGGUGGAAAGUAUUAUGUUACGCCGUUCGGAUCUGCACUUCCAGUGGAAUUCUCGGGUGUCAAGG` has a log2 enrichment of 1.56.

Block 2 — method: RNAcompete; form: RNA; sample: in vitro; concentration: 20 nM; setting: 7-mer, probes averaged, single round; relative to: mean of 7-mers; reading: higher = stronger binding
Target: PABPC1L2, full length, GST fusion (mouse, UniProt A0ABA7IW68)
Target sequence (chain): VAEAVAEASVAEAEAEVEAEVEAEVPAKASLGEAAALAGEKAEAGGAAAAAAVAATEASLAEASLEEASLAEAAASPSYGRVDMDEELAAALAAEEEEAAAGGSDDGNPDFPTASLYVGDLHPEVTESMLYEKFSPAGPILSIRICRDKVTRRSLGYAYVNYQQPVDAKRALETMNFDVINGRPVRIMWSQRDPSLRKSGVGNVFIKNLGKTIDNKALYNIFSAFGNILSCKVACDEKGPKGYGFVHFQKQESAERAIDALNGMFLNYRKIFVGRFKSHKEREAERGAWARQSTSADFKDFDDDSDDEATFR
The 7-mer Z-score of `AAGUUGA` is reported as 0.274.
The 7-mer Z-score of `AACGGUU` is reported as 0.00979.
`AACCUGG` gave a 7-mer Z-score of 0.00798.
For `AUAAAGG`, the 7-mer Z-score was 1.29.
For `GUGUAUG`, the 7-mer Z-score was -0.162.
For `UGGAGAU`, the 7-mer Z-score was 0.0442.
For `UAGAUCG`, the 7-mer Z-score was -0.144.
With `GACUGAC` the 7-mer Z-score was -0.0935.
`GUCGUUA` has a 7-mer Z-score of -0.416.
`GCGGGGG` has a 7-mer Z-score of 0.637.
`UCUCCGG` gave a 7-mer Z-score of -0.405.

Block 3 — target: CCNA2, cyclin fold, Cln2 fusion (human); method: yeast growth competition, sequencing; sample: yeast; setting: strong parent motif; relative to: not given; reading: higher = stronger binding
Parent: RBL2 docking peptide (human); STTRRRLFVENDS
For `T3S`, “normalised enrichment score” read 5.33.
`N11P` — result for “normalised enrichment score”: 6.85.
`R6N`: “normalised enrichment score” 1.69.
For `S13F`, “normalised enrichment score” read 5.98.
`V9N` — result for “normalised enrichment score”: 6.63.
`N11F`: “normalised enrichment score” 5.98.
Under “normalised enrichment score”, `R5N` is recorded as 0.218.
Under “normalised enrichment score”, `R4K` is recorded as 4.57.

Single results of other studies
`PhoQ, residues 284 288 289 292 302 303 TLASMF` has a fold induction of 5.38 (PhoP, residues 12 14 15 18 19 NHFIF (Escherichia coli, UniProt P23836); Sort-seq, measured: YFP reporter; E. coli; PhoQ-PhoP variant library, together with: 10 µM Mg2+; relative to: high Mg2+ state, higher = stronger signaling).

For quick reference, copied from above (block 3):
`R6N`: “normalised enrichment score” 1.69.
`V9N` — result for “normalised enrichment score”: 6.63.
For `S13F`, “normalised enrichment score” read 5.98.
`N11P` — result for “normalised enrichment score”: 6.85.
For `T3S`, “normalised enrichment score” read 5.33.
